{"data": "Results from different studies", "target": "MAP/microtubule affinity-regulating kinase 4 (MARK4, Homo sapiens, UniProt Q96L34)", "One construct used (Q96L34 1-752)": "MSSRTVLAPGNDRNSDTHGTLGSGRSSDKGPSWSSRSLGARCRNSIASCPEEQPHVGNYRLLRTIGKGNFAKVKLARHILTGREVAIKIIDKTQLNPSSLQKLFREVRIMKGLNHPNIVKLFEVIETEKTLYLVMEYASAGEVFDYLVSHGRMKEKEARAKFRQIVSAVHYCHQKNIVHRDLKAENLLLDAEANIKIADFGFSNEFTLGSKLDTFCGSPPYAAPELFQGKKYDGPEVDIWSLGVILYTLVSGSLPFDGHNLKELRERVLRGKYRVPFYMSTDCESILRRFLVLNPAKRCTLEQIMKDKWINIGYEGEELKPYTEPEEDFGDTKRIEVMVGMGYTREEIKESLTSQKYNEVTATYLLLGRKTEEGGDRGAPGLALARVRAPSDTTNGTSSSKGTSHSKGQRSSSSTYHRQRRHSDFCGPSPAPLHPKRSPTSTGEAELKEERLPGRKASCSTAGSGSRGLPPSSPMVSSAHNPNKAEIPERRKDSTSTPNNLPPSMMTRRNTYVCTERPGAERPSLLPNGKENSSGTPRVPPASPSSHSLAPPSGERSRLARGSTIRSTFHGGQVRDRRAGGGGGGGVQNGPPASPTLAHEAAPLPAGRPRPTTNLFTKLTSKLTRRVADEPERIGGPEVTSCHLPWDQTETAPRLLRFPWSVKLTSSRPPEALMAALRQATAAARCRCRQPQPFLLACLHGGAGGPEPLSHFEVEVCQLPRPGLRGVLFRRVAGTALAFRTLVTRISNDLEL"}
{"SMILES": "C=CC(=O)Nc1cc(-c2nn(C3CCN(CCNC(=O)[C@H](C)CCC45CC6CC(CC(C6)C4)C5)CC3)c3ncnc(N)c23)ccc1Oc1ccccc1", "assay": "inhibitor, KiNativ profiling", "test system": "biochemical", "conditions": "2 µM", "endpoint": "inhibition", "result": "15.6%"}
{"SMILES": "Nc1ncc2c(n1)-c1c([nH]c3ccc(C4=CCOCC4)cc13)CCC2", "assay": "binding, competition with immobilised ligand", "conditions": "1 µM", "endpoint": "remaining binding", "result": "90%"}
{"SMILES": "CC(C)=CC1OC(C)(C)C2C=C3C(=O)C(Cl)=CC(O)C3C3C(O)C4OC4C(=O)C132 (centres unmarked)", "assay": "cell-free assay, competition with immobilised ligand", "conditions": "10 µM", "endpoint": "remaining binding", "result": "79%"}
{"SMILES": "COc1cc(Nc2nccc(-c3cnn4nc(OC)ccc34)n2)cc(C(F)(F)F)c1", "assay": "binding, competition with immobilised ligand", "conditions": "1 µM", "endpoint": "remaining binding", "result": "89%"}
{"SMILES": "CNC(=O)C[C@H](Cc1ccc(C#N)cc1)NC(=O)c1cc(-c2ccc(CN[C@H](C)c3ccc(C)cc3)o2)ccc1Cl", "assay": "enzyme activity, inhibitor", "conditions": "1 µM", "endpoint": "activity vs control", "result": "88%"}
{"SMILES": "CCN1CCN(Cc2ccc(C(=O)Nc3ccc(C)c(NCc4cnc5[nH]ccc5c4OC)c3)cc2C(F)(F)F)CC1", "assay": "binding, competition with immobilised ligand", "conditions": "1 µM", "endpoint": "remaining binding", "result": "59%"}
{"SMILES": "NC(=O)[C@@H](O)C[C@H]1CCc2sc3ncnc(O[C@H]4CC[C@H](N5CCOCC5)CC4)c3c21", "assay": "enzyme activity, inhibitor", "conditions": "10 µM", "endpoint": "inhibition", "result": "7%"}
{"SMILES": "Cc1cnc2nc1Nc1cccc(c1)COC/C=C/COCc1cc(ccc1OCCN1CCOCC1)N2", "assay": "cell-free assay", "conditions": "0.1 µM", "endpoint": "remaining signal", "result": "100%"}
{"SMILES": "CNC(=O)C1CCN(c2cc(C)c(F)cc2NC(=O)c2ccc(-c3cc(O)ccc3C)c(C)c2)CC1", "assay": "binding, competition with immobilised ligand", "conditions": "1 µM", "endpoint": "remaining binding", "result": "96%"}
{"SMILES": "Cc1cccc(O[C@H]2CCC[C@@H](C(C)CNCc3ccncc3)C2)c1 (relative stereo)", "assay": "kinase activity, kinome panel screening", "conditions": "10 µM", "endpoint": "inhibition", "result": "1%"}
{"SMILES": "C=CC(=O)Nc1cccc(-c2cnc3[nH]cc(C(=O)NC(C)(C)C)c3n2)c1", "assay": "kinase activity", "conditions": "0.1 µM", "endpoint": "inhibition", "result": "54%"}
{"SMILES": "C=CC(=O)N1CCc2ccc(-n3c(=O)ccc4cnc5ccc(-c6cnn(C)c6)cc5c43)cc21", "assay": "KINOMEscan", "conditions": "1 µM", "scale": "reference: DMSO control", "endpoint": "remaining binding", "result": "100%"}
{"SMILES": "C=CC(=O)N1CCCC(n2c(=O)c3ncccc3n(Cc3ccc(Oc4ccccc4)cc3)c2=O)C1 (centres unmarked)", "assay": "cell-free assay, competition with immobilised ligand", "conditions": "1 µM", "endpoint": "remaining binding", "result": "90%"}
{"SMILES": "CN1CCN(Cc2ccc(-c3ccc(CO[C@H]4CCC[C@@H]4NC(=O)c4cc(-c5cnn(C)c5)cnc4N)cc3)cc2)CC1", "assay": "enzyme activity, inhibitor", "conditions": "0.1 µM", "endpoint": "inhibition", "result": "7%"}
